Measured values of several laboratories.
INSR: Insulin receptor (INSR, Homo sapiens, UniProt P06213)

SMILES = CNS(=O)(=O)Nc1nccc(Cc2c(C)c3ccc(Oc4ncccc4F)cc3oc2=O)c1F; target = INSR; test = cell-free assay, competition with immobilised ligand; conditions = 10 µM; measurement = remaining binding; result = 97%
SMILES = COC(=O)[C@@]1(C)C=C(C(=O)Nc2cccc(C(=O)Nc3ccc(Nc4nccc(-c5cccnc5)n4)c(C)c3)c2)C(=O)CC1; target = INSR; test = binding, competition with immobilised ligand; conditions = 1 µM; measurement = remaining binding; result = 77%
SMILES = Cc1cccc(O[C@H]2CCC[C@@H](C(C)CNCc3ccncc3)C2)c1 (relative stereo); target = INSR; test = cell-free assay; conditions = 1 µM; measurement = inhibition; result = 2%
SMILES = CC(C)=CC1OC(C)(C)C2C=C3C(=O)C(Cl)=CC(O)C3C3C(O)C4OC4C(=O)C132 (centres unmarked); target = INSR; test = cell-free assay, competition with immobilised ligand; conditions = 10 µM; measurement = remaining binding; result = 99%
SMILES = CNC(=O)C[C@H](Cc1ccc(C#N)cc1)NC(=O)c1cc(-c2ccc(CN[C@H](C)c3ccc(C)cc3)o2)ccc1Cl; target = Insulin receptor, phosphorylated (INSR, Homo sapiens, UniProt P06213); test = enzyme activity, inhibitor; conditions = 1 µM; measurement = activity vs control; result = 102%
SMILES = O=C(Cc1ccc(OCc2ccccc2)cc1)NC1(C(=O)O)CCN(C(=O)c2ccc(-c3cccc(Cl)c3)cc2)CC1; target = INSR; test = enzyme activity, inhibitor; conditions = 10 µM; measurement = activity vs control; result = 117%
SMILES = COc1c(Cl)cccc1Nc1c(-c2ccncc2C#C[C@@]2(C)CCCN2C(=O)/C=C/CN(C)C)[nH]c2c1C(=O)NCC2; target = INSR; test = cell-free assay, competition with immobilised ligand; conditions = 3 µM; measurement = remaining binding; result = 98%
SMILES = Nc1nc(Nc2ccccc2)sc1C(=O)c1ccccc1; target = INSR; test = enzyme activity, inhibitor; conditions = 10 µM; measurement = remaining activity; result = 63%
SMILES = CCN1CCN(Cc2ccc(C(=O)Nc3ccc(C)c(NCc4cnc5[nH]ccc5c4OC)c3)cc2C(F)(F)F)CC1; target = INSR; test = binding, competition with immobilised ligand; conditions = 1 µM; measurement = remaining binding; result = 100%
SMILES = Cc1nc2c(F)cc(-c3nc(Nc4ccc(CNC(=O)CCCCCCC(=O)NO)cc4)ncc3F)cc2n1C(C)C; target = INSR; test = enzyme activity, inhibitor; conditions = 1 µM; measurement = inhibition; result = 67%
SMILES = Cc1ccc(C)c(-c2ccc3nc(NC(=O)C4CCCCC4)nn3c2)c1; target = INSR; test = enzyme activity, Dundee kinase panel; conditions = 10 µM; measurement = remaining activity; result = 77%
SMILES = C=C1CCCCCCCCCC(CO)C1=O (centres unmarked); target = INSR; test = cell-free assay; conditions = 10 µM; measurement = remaining signal; result = 100%
SMILES = NC(=O)C[C@H]1CCc2sc3ncnc(O[C@H]4CC[C@H](N5CCOCC5)CC4)c3c21; target = INSR; test = enzyme activity, inhibitor; conditions = 10 µM; measurement = inhibition; result = 15%
SMILES = O=C=[N][Ru-4]123([n]4c5ccc(O)cc5c5c6c(c7cc(F)c[n+]1c7c54)C(=O)NC6=O)[S+]1CC[S+]2CC[S+]3CC1 (centres unmarked); target = Insulin receptor, activated (INSR, Homo sapiens, UniProt P06213); test = enzyme activity; conditions = 100 nM, human enzyme, with: 10 µM ATP; how to read = baseline: untreated; measurement = remaining activity; result = 60%
SMILES = COc1ccc(NC(=O)Nc2ccc3c(c2)C(=O)N(C(C)CO)CC(C)C(CN(C)Cc2ccc4c(c2)OCO4)O3)cc1 (centres unmarked); target = INSR; test = kinase activity; conditions = 0.03 µM; how to read = baseline: control; measurement = remaining activity; result = 101%
SMILES = COc1cc(Nc2nccc(-c3cnn4nc(OC)ccc34)n2)cc(C(F)(F)F)c1; target = INSR; test = binding, competition with immobilised ligand; conditions = 1 µM; measurement = remaining binding; result = 79%
SMILES = CN1CC[C@@H](COc2cnc(C#N)cc2-c2ccn3nc(NC(=O)C4CC4)cc3c2)C1; target = INSR; test = enzyme activity, inhibitor; conditions = 1 µM; measurement = inhibition; result = 4%
